Published values collected from several papers.
Parts stem from different laboratories: compare values within a part only. Changes are numbered by the printed parent chain.
Chain of UniProt P93022 (whole entry, looked up): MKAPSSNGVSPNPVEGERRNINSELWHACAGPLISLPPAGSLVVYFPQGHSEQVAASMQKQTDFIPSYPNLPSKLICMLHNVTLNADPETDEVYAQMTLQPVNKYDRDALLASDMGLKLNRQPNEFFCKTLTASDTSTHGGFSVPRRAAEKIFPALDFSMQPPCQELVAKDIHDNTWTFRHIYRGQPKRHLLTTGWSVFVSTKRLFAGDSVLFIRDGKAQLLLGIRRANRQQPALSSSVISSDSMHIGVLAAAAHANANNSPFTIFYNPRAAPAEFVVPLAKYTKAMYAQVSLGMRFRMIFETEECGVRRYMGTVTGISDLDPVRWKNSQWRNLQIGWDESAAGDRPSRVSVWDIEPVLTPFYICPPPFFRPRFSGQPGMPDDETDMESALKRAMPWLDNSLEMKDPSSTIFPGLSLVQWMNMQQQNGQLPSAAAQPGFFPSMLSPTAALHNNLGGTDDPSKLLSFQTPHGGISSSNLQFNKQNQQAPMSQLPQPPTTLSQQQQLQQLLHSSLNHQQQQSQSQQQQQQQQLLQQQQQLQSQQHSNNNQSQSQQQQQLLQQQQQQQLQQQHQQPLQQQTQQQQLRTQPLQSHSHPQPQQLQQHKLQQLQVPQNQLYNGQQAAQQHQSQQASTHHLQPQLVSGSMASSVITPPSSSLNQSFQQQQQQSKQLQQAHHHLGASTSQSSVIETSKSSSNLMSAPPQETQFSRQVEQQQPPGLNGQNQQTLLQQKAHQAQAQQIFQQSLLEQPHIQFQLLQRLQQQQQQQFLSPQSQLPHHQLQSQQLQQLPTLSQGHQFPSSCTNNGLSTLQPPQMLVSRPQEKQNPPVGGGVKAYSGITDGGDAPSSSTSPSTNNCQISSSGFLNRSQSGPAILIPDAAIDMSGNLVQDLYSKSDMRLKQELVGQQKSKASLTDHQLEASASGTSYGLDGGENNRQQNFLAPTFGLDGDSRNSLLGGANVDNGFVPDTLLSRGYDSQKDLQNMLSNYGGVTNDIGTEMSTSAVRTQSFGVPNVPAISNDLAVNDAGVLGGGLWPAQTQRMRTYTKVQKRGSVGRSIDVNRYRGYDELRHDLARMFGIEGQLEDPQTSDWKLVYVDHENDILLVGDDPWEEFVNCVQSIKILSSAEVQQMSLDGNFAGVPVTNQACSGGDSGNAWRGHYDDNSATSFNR
Chain of UniProt Q9ZTX8 (whole entry, looked up): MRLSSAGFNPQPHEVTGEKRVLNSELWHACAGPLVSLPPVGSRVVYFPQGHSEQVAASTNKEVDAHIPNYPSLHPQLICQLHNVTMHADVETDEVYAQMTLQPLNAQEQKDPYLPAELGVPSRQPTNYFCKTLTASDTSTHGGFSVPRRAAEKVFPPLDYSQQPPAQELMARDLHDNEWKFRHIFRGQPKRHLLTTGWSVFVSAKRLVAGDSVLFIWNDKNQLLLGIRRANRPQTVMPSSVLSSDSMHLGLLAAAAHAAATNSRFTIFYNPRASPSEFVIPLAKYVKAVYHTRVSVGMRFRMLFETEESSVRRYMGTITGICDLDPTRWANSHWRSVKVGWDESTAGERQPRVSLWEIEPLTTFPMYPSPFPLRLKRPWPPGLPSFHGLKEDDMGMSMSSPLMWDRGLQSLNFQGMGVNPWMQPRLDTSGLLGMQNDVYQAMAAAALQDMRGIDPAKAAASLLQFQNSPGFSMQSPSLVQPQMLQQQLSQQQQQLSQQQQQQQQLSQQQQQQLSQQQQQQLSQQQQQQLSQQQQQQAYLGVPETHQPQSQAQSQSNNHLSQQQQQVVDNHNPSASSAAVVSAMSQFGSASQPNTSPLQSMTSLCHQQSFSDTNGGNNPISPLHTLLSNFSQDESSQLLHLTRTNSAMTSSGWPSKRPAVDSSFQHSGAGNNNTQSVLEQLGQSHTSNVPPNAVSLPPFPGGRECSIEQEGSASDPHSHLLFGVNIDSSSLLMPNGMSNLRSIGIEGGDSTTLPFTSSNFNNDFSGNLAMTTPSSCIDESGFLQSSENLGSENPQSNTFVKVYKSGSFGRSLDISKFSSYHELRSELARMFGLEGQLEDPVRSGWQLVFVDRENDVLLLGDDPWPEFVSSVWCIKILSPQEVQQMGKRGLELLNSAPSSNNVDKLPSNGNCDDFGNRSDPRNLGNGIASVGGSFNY
Chain of UniProt Q9C7I9 (whole entry, looked up): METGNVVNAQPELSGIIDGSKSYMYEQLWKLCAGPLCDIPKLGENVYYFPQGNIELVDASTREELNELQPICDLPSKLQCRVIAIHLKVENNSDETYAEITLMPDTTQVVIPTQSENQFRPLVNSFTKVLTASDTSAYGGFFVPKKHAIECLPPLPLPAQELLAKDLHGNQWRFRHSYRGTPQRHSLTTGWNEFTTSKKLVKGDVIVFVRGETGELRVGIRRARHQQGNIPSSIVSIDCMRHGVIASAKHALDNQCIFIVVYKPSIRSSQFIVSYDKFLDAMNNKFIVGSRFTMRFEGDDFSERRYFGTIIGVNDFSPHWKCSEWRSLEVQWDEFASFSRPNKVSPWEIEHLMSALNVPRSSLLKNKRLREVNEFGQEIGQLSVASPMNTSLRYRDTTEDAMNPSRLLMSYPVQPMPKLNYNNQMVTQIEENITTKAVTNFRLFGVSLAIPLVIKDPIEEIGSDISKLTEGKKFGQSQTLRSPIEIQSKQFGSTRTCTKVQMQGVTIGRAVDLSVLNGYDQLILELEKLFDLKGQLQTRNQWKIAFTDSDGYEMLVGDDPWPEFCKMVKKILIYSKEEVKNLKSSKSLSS
Chain of UniProt Q9FX25 (whole entry, looked up): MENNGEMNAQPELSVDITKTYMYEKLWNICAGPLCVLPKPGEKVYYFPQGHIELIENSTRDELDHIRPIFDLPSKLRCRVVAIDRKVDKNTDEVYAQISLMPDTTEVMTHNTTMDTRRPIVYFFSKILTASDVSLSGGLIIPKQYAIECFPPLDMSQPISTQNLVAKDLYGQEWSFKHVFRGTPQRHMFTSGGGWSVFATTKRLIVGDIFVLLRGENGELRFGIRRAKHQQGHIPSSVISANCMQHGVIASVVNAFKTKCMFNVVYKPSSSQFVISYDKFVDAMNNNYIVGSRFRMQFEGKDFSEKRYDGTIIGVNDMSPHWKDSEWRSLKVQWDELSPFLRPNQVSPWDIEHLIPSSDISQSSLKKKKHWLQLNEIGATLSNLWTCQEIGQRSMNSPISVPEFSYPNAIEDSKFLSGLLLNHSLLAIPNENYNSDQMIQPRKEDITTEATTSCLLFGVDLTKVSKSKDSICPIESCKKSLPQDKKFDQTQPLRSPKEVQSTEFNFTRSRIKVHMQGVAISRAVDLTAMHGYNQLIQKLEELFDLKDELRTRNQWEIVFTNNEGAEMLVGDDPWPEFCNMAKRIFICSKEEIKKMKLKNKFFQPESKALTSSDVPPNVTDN
Chain of UniProt Q9C8N7 (whole entry, looked up): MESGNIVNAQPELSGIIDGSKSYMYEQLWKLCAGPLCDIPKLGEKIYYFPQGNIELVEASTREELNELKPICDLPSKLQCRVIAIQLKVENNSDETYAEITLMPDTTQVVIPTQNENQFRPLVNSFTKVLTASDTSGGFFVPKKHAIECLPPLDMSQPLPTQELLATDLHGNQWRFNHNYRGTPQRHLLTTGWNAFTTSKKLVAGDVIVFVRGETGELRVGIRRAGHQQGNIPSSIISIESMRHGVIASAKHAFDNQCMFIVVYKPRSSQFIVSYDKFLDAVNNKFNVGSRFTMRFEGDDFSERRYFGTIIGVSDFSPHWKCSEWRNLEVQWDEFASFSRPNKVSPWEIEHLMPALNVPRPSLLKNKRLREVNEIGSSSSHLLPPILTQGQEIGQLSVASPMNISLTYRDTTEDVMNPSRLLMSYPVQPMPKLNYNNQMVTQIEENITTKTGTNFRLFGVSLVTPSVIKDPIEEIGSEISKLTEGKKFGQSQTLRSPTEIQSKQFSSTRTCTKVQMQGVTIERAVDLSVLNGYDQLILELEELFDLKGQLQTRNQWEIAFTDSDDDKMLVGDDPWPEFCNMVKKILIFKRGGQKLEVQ

Block 1
Target: ABI1, truncated, D143A, DHFR fusion (Arabidopsis thaliana)
Method: DHFR PCA, deep sequencing
Matrix: yeast
Setting: methotrexate growth selection, single substitutions
Added: (+)-ABA 1.4 µM
Baseline: wild-type fitted maximum
Direction: higher = stronger binding
Starting sequence: PYL1, truncated, DHFR fusion (Arabidopsis thaliana); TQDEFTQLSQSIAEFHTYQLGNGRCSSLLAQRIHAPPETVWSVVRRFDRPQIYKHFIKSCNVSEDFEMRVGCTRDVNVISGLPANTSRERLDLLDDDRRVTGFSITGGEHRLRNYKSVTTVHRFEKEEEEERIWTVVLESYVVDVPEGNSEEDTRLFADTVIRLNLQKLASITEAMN
Substitution	relative binding score
Q167F	4%
P37A	30.2%
Q2F	72.2%
E38M	11%
T119C	30%
E129F	47.7%
D153L	-10.2%
E4L	60.8%
R88G	-8.57%
T1I	62.2%

Block 2
Target: CCNE1, cyclin fold, Cln2 fusion (human)
Method: yeast growth competition, sequencing
Matrix: yeast
Setting: strong parent motif
Baseline: not given
Direction: higher = stronger binding
Starting sequence: RBL1 docking peptide (human); GSAKRRLFGEDPP
Substitution	normalised enrichment score
R5K	3.15
K4M	2.87
K4Y	1.54
F8C	0.0184
P12M	6.27
L7S	0.453
L7Q	0.77
L7N	0.818
A3R	-0.14
L7K	1.1
G1P	6.8
P13R	5.73
R5F	0.205
A3F	5.72
P13L	6.72
G9V	7.67
S2C	6.12
D11K	4.93
A3Y	5.29
P13F	5.55
E10L	4.65
F8R	0.0533
P13T	5.7
L7A	-0.235
P12H	6.11

Block 3
Partner: H2AC14 (Homo sapiens, UniProt Q99878)
Method: cross-linking MS
Setting: hits only
Substance	interaction screen
H2BC21 (Homo sapiens, UniProt Q16778)	cross-linked
H2BC12 (Homo sapiens, UniProt O60814)	cross-linked
H2BC9 (Homo sapiens, UniProt Q93079)	cross-linked

Block 4
Molecule: B1 (IAA20)
Method: two-hybrid
Setting: weak activation fusion
Baseline: out of 4 tests
Direction: higher = firmer interaction
B1: IAA20 (Arabidopsis thaliana, UniProt O24410); chain MGRGRSSSSSSIESSSKSNPFGASSSTRNLSTDLRLGLSFGTSSGTQYFNGGYGYSVAAPAVEDAEYVAAVEEEEENECNSVGSFYVKVNMEGVPIGRKIDLMSLNGYRDLIRTLDFMFNASILWAEEEDMCNEKSHVLTYADKEGDWMMVGDVPWEMFLSTVRRLKISRANYHY
partner	positive tests
ARF7 1030-1164 (Arabidopsis thaliana, UniProt P93022)	2
ARF6 790-935 (Arabidopsis thaliana, UniProt Q9ZTX8)	3
ARF8 699-811 (Arabidopsis thaliana, UniProt Q9FGV1)	2
ARF13 (Arabidopsis thaliana, UniProt Q9FX25)	0
ARF20 484-590 (Arabidopsis thaliana, UniProt Q9C7I9)	0
ARF22 498-598 (Arabidopsis thaliana, UniProt Q9C8N7)	2

Block 5
Target: Ras GTPase-activating protein-binding protein 1, full length (G3BP1, Homo sapiens, UniProt Q13283)
Chain of UniProt Q13283 (whole entry, looked up): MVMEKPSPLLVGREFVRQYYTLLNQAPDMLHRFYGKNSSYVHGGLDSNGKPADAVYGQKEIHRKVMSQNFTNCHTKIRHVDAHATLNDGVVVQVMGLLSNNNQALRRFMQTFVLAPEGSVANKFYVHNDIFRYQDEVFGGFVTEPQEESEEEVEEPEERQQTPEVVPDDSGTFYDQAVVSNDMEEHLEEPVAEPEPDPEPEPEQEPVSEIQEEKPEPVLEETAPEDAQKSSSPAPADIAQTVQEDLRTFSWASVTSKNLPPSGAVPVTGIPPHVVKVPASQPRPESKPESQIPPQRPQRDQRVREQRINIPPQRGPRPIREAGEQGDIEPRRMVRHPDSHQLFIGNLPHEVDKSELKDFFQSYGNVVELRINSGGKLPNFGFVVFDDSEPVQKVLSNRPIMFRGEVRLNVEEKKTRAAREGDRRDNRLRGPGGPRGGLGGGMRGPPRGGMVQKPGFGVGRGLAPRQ
Method: RNA Bind-n-Seq
Molecule type: RNA
Matrix: in vitro
Tested at: 200 nM
Setting: whole 134-nt RNA, ends assumed
Added: 150 mM LiCl
Baseline: input library
Direction: higher = stronger binding
Each molecule: 7-deaza-guanosine replaces G
Constant ends, left off below: GGGAGUUCUACAGUCCGACGAUC … UGGAAUUCUCGGGUGUCAAGG
Strand	log2 enrichment
UAACUUUAGAGGAGUAUCUGAUGGAUAUGGCAGUGGACGUGGAUUUGGGGAUGGCUAUAAUGGGUAUGGAGGAGGACCUGGAGGUGGCAA	-0.132
CCUCAAGUCCUGUGCUACACAUCGUAUGUACCGAAUCGGGCGGCGGGCGGGGAAAGUAUUAUGUUACGCCGUUCGGAUCUGCACUUCCAG	0.488
AGUCCUGUGCUACACAUCGUAUGUACCGAAUCGGGGUUUGGGGUGGGGUUUUUGGGGAAAGUAUUAUGUUACGCCGUUCGGAUCUGCACU	-0.00573
ACCAUGCAGGUGGGCAUCUUUGGGAAAUGGGGCAAGGGGGGGAUAGGGAGGGGGGUAACACUUUGGGAACAGGUGGUCCCAGGUCGUUUC	0.223
UAACUUUAGAGGAGGAUCUGAUGGAUAUGGCAGUGGACGUGGAUUUGGGGAUGGCUAUAAUAGGUAUGGAGGAGGACCUGGAGGUGGCAA	-0.208
AAGUCCUGUGCUACACAUCGUAUGUACCGAAUCGGGGUGGGGAAAAAGGGGUGGGGAAAGUAUUAUGUUACGCCGUUCGGAUCUGCACUU	0.367
AGUCCUGUGCUACACAUCGUAUGUACCGAAUCGGGGAAAAAGGGGUUUGGGGAGGGGAAAGUAUUAUGUUACGCCGUUCGGAUCUGCACU	-0.58
UGGCCCUGGUGGCACGCGGGGAGGAAGAGGUGGCCUCAUGGAUCGUGGUGGUCCCGGUGGAAUGUUCAGAGGUGGCCGUGGUGGAGACAG	0.578
UGGGAGGUGGAUUUUGUUUAUUUUUUUAGCUCAUUUCCAGGGGUGGGAAUUUCUUUUUAAUAUGUGUCAUGAAUAAAGUUGUUUUUGAAA	-0.415
CCUGUGCUACACAUCGUAUGUACCGAAUCGGGGUUUUUUGGGGUUUUUUGGUUUUUUGGGGAAAGUAUUAUGUUACGCCGUUCGGAUCUG	0.633
UUGGACUUGGAGCAUCUGCUCAGUGAGUCUCCAGAAGGAAGUCCCUUCCGAGAUAUGGAUGAUGGAAGUGAUUCCCUUGGGGUGGGAUUG	-2.23

Block 6
Target: Sal-like protein 4, full length isoform B (SALL4, Homo sapiens, UniProt Q9UJQ4-2, residues 1-616)
Method: universal PBM
Molecule type: double-stranded DNA, one strand shown
Matrix: in vitro
Tested at: not given
Setting: 8-mer, flanks averaged, mean of replicates
Direction: higher = stronger binding
Construct (chain): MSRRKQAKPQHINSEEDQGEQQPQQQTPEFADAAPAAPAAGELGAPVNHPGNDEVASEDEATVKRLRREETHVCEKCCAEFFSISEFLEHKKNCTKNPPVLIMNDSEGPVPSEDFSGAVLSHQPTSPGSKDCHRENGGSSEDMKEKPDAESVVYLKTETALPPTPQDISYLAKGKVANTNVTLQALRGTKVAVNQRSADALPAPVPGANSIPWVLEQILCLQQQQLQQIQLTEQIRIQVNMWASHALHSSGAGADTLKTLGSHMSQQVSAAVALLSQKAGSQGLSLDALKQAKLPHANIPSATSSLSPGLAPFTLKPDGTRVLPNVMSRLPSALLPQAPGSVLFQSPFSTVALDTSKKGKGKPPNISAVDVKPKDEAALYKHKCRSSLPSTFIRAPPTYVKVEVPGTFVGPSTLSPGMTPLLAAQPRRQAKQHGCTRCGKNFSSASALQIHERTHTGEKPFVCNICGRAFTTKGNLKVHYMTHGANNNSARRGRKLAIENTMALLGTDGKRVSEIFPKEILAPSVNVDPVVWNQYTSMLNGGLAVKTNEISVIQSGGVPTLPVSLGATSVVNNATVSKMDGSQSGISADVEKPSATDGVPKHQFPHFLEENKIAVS
Strand	E-score
AGTCCAGG	-0.243
AAAAGCGT	0.118
GCTTTGCC	-0.207
GATGAGGA	-0.0372
AGAGAATC	-0.0043
AGTAGAAA	0.0756
AAGCGCTG	-0.102
CCTTTAAG	-0.0695
CAGGATAC	-0.047
AGGTGGCC	-0.258
CCAAGAAC	-0.196
GGTCCCAA	-0.194
ACGTTGCC	-0.0872
GCTTAAAA	0.0829
AGGTTGTG	-0.0158
CGGCCCAG	-0.355
AAGAGCCT	0.00465
AAAAGGTG	0.00213
CGGGCACA	-0.327
GGAAAAAC	0.064
CGCAAGTA	0.119
TCGGATCA	0.0273
CAGCGTGA	-0.125

Mixed results
Substance	target	test	test system	conditions	scale	quantity	result
PhoQ, residues 284 288 289 292 302 303 SCCLKL	PhoP, residues 12 14 15 18 19 HEGLL (Escherichia coli, UniProt P23836)	Sort-seq, refers to: YFP reporter	E. coli	PhoQ-PhoP variant library, added: 10 µM Mg2+	baseline: high Mg2+ state, higher = stronger signaling	fold induction	7.07

Repeated from above (block 5):
Strand	log2 enrichment
UAACUUUAGAGGAGGAUCUGAUGGAUAUGGCAGUGGACGUGGAUUUGGGGAUGGCUAUAAUAGGUAUGGAGGAGGACCUGGAGGUGGCAA	-0.208
AAGUCCUGUGCUACACAUCGUAUGUACCGAAUCGGGGUGGGGAAAAAGGGGUGGGGAAAGUAUUAUGUUACGCCGUUCGGAUCUGCACUU	0.367
AGUCCUGUGCUACACAUCGUAUGUACCGAAUCGGGGAAAAAGGGGUUUGGGGAGGGGAAAGUAUUAUGUUACGCCGUUCGGAUCUGCACU	-0.58
UGGCCCUGGUGGCACGCGGGGAGGAAGAGGUGGCCUCAUGGAUCGUGGUGGUCCCGGUGGAAUGUUCAGAGGUGGCCGUGGUGGAGACAG	0.578
UGGGAGGUGGAUUUUGUUUAUUUUUUUAGCUCAUUUCCAGGGGUGGGAAUUUCUUUUUAAUAUGUGUCAUGAAUAAAGUUGUUUUUGAAA	-0.415
CCUGUGCUACACAUCGUAUGUACCGAAUCGGGGUUUUUUGGGGUUUUUUGGUUUUUUGGGGAAAGUAUUAUGUUACGCCGUUCGGAUCUG	0.633
